Published values of several laboratories.
Parts stem from different laboratories: compare values within a part only.
Sequence of UniProt O15075 (whole entry, looked up): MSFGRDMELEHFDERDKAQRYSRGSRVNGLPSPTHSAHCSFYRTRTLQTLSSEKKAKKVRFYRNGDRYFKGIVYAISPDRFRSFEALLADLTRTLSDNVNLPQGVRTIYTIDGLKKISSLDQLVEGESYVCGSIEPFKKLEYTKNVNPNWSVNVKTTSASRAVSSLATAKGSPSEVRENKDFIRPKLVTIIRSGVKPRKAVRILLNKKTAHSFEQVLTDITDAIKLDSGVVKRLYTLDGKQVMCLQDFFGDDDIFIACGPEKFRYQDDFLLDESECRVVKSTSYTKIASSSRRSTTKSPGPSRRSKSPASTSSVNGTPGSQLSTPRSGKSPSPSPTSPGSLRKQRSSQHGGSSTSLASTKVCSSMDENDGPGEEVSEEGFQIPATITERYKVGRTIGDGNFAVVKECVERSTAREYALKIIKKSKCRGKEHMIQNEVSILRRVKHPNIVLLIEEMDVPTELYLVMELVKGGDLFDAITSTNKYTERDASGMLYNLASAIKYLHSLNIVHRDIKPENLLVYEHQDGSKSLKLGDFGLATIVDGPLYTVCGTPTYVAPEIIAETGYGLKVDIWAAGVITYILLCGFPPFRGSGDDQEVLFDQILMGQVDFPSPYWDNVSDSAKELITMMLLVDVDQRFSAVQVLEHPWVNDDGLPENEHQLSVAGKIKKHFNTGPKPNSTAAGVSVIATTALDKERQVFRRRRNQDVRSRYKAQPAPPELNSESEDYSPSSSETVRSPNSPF
Sequence of UniProt Q8IYT8 (whole entry, looked up): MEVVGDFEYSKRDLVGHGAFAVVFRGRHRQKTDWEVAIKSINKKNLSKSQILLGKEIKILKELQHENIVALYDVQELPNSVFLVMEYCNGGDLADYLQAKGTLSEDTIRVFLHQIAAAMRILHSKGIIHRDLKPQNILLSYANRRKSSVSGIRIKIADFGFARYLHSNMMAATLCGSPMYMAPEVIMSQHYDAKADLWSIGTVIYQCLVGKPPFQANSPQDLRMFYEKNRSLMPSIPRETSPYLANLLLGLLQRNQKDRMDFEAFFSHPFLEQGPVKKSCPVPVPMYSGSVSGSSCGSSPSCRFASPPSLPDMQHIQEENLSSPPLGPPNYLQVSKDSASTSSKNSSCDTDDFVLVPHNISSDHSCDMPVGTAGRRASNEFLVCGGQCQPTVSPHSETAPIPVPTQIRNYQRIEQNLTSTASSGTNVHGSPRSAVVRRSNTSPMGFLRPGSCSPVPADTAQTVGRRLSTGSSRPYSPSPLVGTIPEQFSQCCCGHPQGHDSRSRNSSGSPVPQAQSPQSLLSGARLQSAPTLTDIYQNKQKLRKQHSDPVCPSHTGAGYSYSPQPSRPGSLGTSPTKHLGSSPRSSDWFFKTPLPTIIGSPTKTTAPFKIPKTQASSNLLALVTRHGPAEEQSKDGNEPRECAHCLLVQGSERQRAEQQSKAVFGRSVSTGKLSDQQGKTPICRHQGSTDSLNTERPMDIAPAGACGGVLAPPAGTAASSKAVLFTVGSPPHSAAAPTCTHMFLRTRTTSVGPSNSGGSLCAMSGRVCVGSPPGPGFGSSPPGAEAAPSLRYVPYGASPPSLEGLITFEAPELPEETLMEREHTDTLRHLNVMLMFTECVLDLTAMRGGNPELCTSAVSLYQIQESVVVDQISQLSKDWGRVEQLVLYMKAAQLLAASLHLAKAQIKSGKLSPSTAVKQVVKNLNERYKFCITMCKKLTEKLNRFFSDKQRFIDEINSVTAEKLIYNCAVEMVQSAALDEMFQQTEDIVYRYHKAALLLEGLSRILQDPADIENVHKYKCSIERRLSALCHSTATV
Sequence of UniProt Q9H3Y6 (whole entry, looked up): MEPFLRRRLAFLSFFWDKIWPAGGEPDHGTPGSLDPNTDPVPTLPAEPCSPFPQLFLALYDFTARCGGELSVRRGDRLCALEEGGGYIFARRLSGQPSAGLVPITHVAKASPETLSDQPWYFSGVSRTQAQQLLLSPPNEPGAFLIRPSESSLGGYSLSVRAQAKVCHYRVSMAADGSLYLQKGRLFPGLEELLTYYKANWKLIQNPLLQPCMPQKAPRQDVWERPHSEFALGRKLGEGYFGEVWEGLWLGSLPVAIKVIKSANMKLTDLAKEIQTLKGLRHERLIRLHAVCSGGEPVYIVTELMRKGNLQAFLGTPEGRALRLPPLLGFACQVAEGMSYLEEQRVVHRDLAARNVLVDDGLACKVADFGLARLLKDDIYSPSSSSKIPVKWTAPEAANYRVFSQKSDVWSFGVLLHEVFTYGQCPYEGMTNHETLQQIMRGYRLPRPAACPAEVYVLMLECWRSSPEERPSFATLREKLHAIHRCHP
Sequence of UniProt P28482 (whole entry, looked up): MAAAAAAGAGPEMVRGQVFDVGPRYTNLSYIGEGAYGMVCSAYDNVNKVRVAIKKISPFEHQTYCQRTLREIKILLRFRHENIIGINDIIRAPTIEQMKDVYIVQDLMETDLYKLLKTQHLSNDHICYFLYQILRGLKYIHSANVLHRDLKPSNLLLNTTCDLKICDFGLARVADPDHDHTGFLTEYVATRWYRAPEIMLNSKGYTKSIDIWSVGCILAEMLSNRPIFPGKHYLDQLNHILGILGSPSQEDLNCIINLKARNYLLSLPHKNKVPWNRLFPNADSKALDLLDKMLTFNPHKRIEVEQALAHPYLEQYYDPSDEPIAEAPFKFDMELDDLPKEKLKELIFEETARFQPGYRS
Sequence of UniProt Q16816 (whole entry, looked up): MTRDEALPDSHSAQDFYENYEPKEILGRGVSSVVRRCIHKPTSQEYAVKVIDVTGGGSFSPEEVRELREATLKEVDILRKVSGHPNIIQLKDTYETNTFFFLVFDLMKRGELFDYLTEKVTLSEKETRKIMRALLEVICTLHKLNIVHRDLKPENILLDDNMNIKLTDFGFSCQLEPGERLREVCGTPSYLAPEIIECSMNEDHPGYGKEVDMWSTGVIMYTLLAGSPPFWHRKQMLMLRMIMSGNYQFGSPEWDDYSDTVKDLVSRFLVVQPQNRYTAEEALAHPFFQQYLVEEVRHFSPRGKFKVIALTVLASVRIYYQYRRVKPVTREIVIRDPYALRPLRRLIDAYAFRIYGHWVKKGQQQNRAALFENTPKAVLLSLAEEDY
Sequence of UniProt P42336 (whole entry, unmodified, looked up): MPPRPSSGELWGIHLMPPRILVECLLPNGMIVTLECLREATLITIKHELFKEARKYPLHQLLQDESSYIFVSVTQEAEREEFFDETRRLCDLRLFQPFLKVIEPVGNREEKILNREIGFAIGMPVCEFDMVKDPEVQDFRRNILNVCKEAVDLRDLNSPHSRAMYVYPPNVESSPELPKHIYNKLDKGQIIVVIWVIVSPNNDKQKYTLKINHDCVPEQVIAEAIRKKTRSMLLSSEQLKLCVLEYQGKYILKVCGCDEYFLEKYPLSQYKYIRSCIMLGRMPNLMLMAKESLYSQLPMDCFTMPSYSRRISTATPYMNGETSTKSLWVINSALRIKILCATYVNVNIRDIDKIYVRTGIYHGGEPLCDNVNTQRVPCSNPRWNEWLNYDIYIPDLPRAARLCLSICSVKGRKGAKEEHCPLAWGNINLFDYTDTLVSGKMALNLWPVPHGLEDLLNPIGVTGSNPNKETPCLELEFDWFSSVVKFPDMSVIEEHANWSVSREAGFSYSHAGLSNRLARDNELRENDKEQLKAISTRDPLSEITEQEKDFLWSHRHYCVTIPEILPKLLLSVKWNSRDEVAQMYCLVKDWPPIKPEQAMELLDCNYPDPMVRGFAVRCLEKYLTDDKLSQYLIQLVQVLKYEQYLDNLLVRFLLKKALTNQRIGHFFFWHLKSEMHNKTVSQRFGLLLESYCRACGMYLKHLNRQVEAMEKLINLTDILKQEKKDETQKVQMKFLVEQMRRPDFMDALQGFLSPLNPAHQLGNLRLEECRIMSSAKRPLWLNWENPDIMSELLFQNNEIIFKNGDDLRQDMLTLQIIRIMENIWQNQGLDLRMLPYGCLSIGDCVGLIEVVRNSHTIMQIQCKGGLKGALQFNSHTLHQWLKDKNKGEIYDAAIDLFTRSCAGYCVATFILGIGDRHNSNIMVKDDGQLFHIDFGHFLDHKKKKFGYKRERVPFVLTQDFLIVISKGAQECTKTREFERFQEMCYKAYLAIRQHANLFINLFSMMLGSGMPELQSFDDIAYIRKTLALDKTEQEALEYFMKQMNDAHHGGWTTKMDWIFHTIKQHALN
Sequence of UniProt P11802 (whole entry, looked up): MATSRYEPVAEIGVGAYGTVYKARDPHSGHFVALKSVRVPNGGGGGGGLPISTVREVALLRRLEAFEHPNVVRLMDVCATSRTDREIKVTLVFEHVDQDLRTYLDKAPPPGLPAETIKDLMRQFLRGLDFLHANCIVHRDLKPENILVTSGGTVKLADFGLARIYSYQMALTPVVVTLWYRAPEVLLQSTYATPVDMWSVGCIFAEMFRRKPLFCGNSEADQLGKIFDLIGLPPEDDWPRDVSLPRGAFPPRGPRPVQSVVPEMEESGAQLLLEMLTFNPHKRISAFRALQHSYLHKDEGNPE
Sequence of UniProt Q8NE63 (whole entry, looked up): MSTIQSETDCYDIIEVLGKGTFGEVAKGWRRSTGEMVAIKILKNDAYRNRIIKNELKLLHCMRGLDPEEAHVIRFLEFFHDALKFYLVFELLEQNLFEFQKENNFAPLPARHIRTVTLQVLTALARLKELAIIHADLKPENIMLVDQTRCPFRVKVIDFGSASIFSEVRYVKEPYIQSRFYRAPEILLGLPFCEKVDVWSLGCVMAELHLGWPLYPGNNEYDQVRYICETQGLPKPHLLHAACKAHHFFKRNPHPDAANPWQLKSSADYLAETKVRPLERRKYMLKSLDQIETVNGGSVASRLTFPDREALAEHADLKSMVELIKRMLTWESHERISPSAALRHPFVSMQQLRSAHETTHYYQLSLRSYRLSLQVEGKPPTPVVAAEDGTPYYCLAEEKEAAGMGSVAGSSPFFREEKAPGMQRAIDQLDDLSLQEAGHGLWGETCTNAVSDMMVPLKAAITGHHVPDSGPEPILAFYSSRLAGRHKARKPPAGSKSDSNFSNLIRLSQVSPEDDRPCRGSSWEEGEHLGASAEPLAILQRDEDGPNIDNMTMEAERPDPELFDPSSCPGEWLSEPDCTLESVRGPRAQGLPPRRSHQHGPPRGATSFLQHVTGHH

Sample 1
Structure (SMILES): CC1=C(C#N)[C@@H](c2ccc3[nH]nc(C)c3c2)C(C#N)=C(c2ccc(Cl)cc2)N1
Tested at: 1 µM
| target | assay | remaining binding [%] |
| --- | --- | --- |
| Serine/threonine-protein kinase WNK1 (WNK1, Homo sapiens, UniProt Q9H4A3) | cell-free assay, competition with immobilised ligand | 100 |
| Homeodomain-interacting protein kinase 4 (HIPK4, Homo sapiens, UniProt Q8NE63) | cell-free assay, competition with immobilised ligand | 88.1 |
| Mitogen-activated protein kinase kinase kinase 20 (MAP3K20, Homo sapiens, UniProt Q9NYL2) | cell-free assay, competition with immobilised ligand | 93.6 |
| Phosphatidylinositol 4-phosphate 5-kinase type-1 gamma (PIP5K1C, Homo sapiens, UniProt O60331) | cell-free assay, competition with immobilised ligand | 99.5 |
| Cyclin-dependent kinase-like 5 (CDKL5, Homo sapiens, UniProt O76039) | binding, competition with immobilised ligand | 88.5 |
| Insulin receptor (INSR, Homo sapiens, UniProt P06213) | cell-free assay, competition with immobilised ligand | 100 |
| Mitogen-activated protein kinase 1 (MAPK1, Homo sapiens, UniProt P28482) | cell-free assay, competition with immobilised ligand | 100 |
| TGF-beta receptor type-1 (TGFBR1, Homo sapiens, UniProt P36897) | cell-free assay, competition with immobilised ligand | 62.4 |
| eIF-2-alpha kinase GCN2, C-terminal kinase domain (EIF2AK4, Homo sapiens, UniProt Q9P2K8, S808G) | cell-free assay, competition with immobilised ligand | 89.9 |
| Serine/threonine-protein kinase MRCK gamma (CDC42BPG, Homo sapiens, UniProt Q6DT37) | competition binding | 93.6 |
| Ribosomal protein S6 kinase alpha-6, N-terminal kinase domain (RPS6KA6, Homo sapiens, UniProt Q9UK32) | cell-free assay, competition with immobilised ligand | 100 |
| Serine/threonine-protein kinase ULK2 (ULK2, Homo sapiens, UniProt Q8IYT8) | cell-free assay, competition with immobilised ligand | 100 |
| Platelet-derived growth factor receptor alpha (PDGFRA, Homo sapiens, UniProt P16234) | cell-free assay, competition with immobilised ligand | 100 |
| Serine/threonine-protein kinase DCLK1 (DCLK1, Homo sapiens, UniProt O15075) | cell-free assay, competition with immobilised ligand | 79.2 |
| Phosphatidylinositol 4,5-bisphosphate 3-kinase catalytic subunit alpha isoform (PIK3CA, Homo sapiens, UniProt P42336, I800L) | cell-free assay, competition with immobilised ligand | 100 |
| Tyrosine-protein kinase ABL1, phosphorylated (ABL1, Homo sapiens, UniProt P00519, H396P) | cell-free assay, competition with immobilised ligand | 100 |

Sample 2
SMILES: CC(C)n1cnc2c(Nc3cccc(Cl)c3)nc(NCCO)nc21
Observed: enzyme activity
Action: inhibitor
Tested at: 0.5 µM
Relative to: control
| target | remaining activity [%] |
| --- | --- |
| Tyrosine-protein kinase Srms (SRMS, Homo sapiens, UniProt Q9H3Y6) | 85.1 |
| Cyclin-dependent kinase 4, with cyclin D3 (CDK4, Homo sapiens, UniProt P11802) | 93.3 |
| Serine/threonine-protein kinase 16 (STK16, Homo sapiens, UniProt O75716) | 89.8 |
| Ephrin type-B receptor 1 (EPHB1, Homo sapiens, UniProt P54762) | 76.9 |
| Phosphorylase b kinase gamma catalytic chain, skeletal muscle/heart isoform (PHKG1, Homo sapiens, UniProt Q16816) | 75.8 |

Sample 3
SMILES: CC(C)n1cnc(-c2ccc(F)cc2)c1-c1ncc(C(=O)Nc2ccc(N3CCN(C)CC3)cc2)[nH]1
Technique: phase 2a trial
Species: idiopathic pulmonary fibrosis patients
| setting | patients with gastritis [%] |
| --- | --- |
| 60 mg once daily, adverse event grade 5 | 0 |
| dose not given, grade 2, arms pooled | 1 |
| dose not given, adverse event grade 4, all dose arms pooled | 0 |
| 60 mg once daily, adverse event grade 3 | 0 |
| 60 mg once daily, adverse event grade 1 | 0 |
| 30 mg once daily, adverse event grade 1 | 0 |
| 60 mg once daily, adverse event grade 4 | 0 |

Sample 4
Technique: PRP-column chromatography
| SMILES | average log k' (20-100) |
| --- | --- |
| CCCCOc1ccc(-c2ccc(C(=O)OCCCCCC(=O)N[C@H](C(=O)N3C[C@H](O)C[C@H]3C(=O)NCc3ccc(-c4scnc4C)cc3)C(C)(C)C)cc2)cc1 | 1.4 |
| Cc1ncsc1-c1ccc(CNC(=O)[C@@H]2C[C@@H](O)CN2C(=O)[C@@H](NC(=O)CCCCCNC(=O)CC23C[C@H]4C[C@@H](C2)C[C@@H](C3)C4)C(C)(C)C)cc1 | 1.18 |
| COCC(=O)OCCCCCC(=O)N[C@H](C(=O)N1C[C@H](O)C[C@H]1C(=O)NCc1ccc(-c2scnc2C)cc1)C(C)(C)C | 0.988 |
| Cc1ncsc1-c1ccc(CNC(=O)[C@@H]2C[C@@H](O)CN2C(=O)[C@@H](NC(=O)CCCCCOC(=O)CC(c2ccccc2)c2ccccc2)C(C)(C)C)cc1 | 1.28 |
| CCCCOc1ccc(-c2ccc(C(=O)NCCCCCC(=O)N[C@H](C(=O)N3C[C@H](O)C[C@H]3C(=O)NCc3ccc(-c4scnc4C)cc3)C(C)(C)C)cc2)cc1 | 1.29 |

Sample 5
Target: Diamine acetyltransferase 1 (Homo sapiens, UniProt P21673)
Action: inhibitor
Tested at: 10 µM
Relative to: control
Construct (P21673 1-171): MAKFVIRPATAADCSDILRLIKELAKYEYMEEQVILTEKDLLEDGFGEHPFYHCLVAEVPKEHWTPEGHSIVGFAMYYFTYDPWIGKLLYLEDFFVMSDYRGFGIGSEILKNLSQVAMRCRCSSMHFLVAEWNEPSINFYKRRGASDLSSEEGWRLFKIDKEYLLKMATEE
| SMILES | remaining activity [%] |
| --- | --- |
| OCCc1ccccc1 | 85.2 |
| COc1c2occc2c(OC)c2c(=O)cc(C)oc12 | 103 |
| C[C@@H]1C[C@@H]([C@@H](O)C(C)(C)O)O[C@H]2C[C@@]3(C)C(=C12)C[C@H](O)[C@H]1[C@@]2(C)CCC(=O)C(C)(C)[C@@H]2CC[C@@]13C | 103 |
| COc1ccc2c(c1OC)O[C@H]1c3ccc(O[C@@H]4O[C@H](CO)[C@@H](O)[C@H](O)[C@H]4O)cc3OC[C@@H]21 | 104 |

Some of these lines once more (sample 1):
| target | assay | remaining binding [%] |
| --- | --- | --- |
| Phosphatidylinositol 4,5-bisphosphate 3-kinase catalytic subunit alpha isoform (PIK3CA, Homo sapiens, UniProt P42336, I800L) | cell-free assay, competition with immobilised ligand | 100 |
| Mitogen-activated protein kinase 1 (MAPK1, Homo sapiens, UniProt P28482) | cell-free assay, competition with immobilised ligand | 100 |
